{"data": "Experimental data gathered from unrelated publications", "sample": "plasma", "note": "Compare with care: the assays were run in different laboratories. ± gives the spread as reported."}
{"Structure (SMILES)": "CCc1nc2c(C)cc(N3CCN(CC(=O)N4CC(O)C4)CC3)cn2c1N(C)c1nc(-c2ccc(F)cc2)c(C#N)s1", "system": "healthy volunteers, fed", "conditions": "oral, 600 mg single dose, day 1, tablet", "endpoint": "AUC(0-inf)", "value": "45.1 µg·h/mL"}
{"Structure (SMILES)": "CS(=O)(=O)c1ccc([C@@H](O)[C@@H](CF)NC(=O)C(Cl)Cl)cc1", "system": "chicken (Arbor Acres)", "conditions": "oral, 20 mg/kg, with: saline pretreatment", "endpoint": "AUC(0-inf)", "value": "25.1 ± 2.72 µg·h/mL"}
{"Structure (SMILES)": "CC(=O)N[C@H]1CC[C@H](NC(=O)CN2CCN(c3nncc(-c4ccc(C)cc4)n3)CC2)CC1", "system": "women", "conditions": "oral, 100 mg single dose, study", "endpoint": "AUC(0-inf)", "value": "6.37 µg·h/mL"}
{"Structure (SMILES)": "COc1ccc([C@@H](O)c2cc(-c3ncnc4cc(N5CCOCC5)ccc34)c(F)cc2Cl)nn1", "test": "mixed model", "system": "healthy volunteers", "conditions": "oral, 100 mg, fasted tablet reference arm", "endpoint": "AUC(0-inf) geometric LS mean", "value": "1.15 µg·h/mL"}
{"Structure (SMILES)": "FC(F)(F)c1ccc(CNc2ccc(Cc3c[nH]c4ncc(Cl)cc34)cn2)cn1", "system": "healthy volunteers", "conditions": "oral, 600 mg, with: rifampin", "how to read": "reference: with rifampin over alone", "endpoint": "AUC(0-inf) ratio", "value": 0.37}
{"Structure (SMILES)": "CCCCCCCCCCCCCCCC(=O)N[C@@H](CCC(=O)NCCCC[C@@H]1NC(=O)[C@H]([C@@H](C)CC)NC(=O)[C@@H](NC(=O)[C@@H]2CCCN2C(=O)[C@H](Cc2ccccc2)NC(=O)[C@H](Cc2c[nH]cn2)NC(=O)[C@@H](NC(=O)[C@H](CC(=O)O)NC(=O)CC(C)C)[C@@H](C)O)CSSC[C@@H](C(=O)N[C@@H](CCCCN)C(N)=O)NC(=O)CNC(=O)[C@H](CCCCN)NC(=O)[C@H](CO)NC(=O)[C@H](CCCNC(=N)N)NC(=O)[C@@H]2CCCN2C(=O)[C@H](CCC(=O)O)NC(=O)[C@H](Cc2ccccc2)NC1=O)C(=O)O", "system": "healthy volunteers", "conditions": "subcutaneous, 45 mg", "how to read": "reference: parent plus metabolites", "endpoint": "AUC(0-inf) share of total", "value": "55.2 ± 4.55%"}
{"Structure (SMILES)": "C[C@@H](N)C1CCN(S(=O)(=O)c2cccc3cnccc23)CC1", "system": "healthy volunteers, fasted", "conditions": "oral, 250 mg", "endpoint": "AUC(0-inf)", "value": "0.0782 µg·h/mL"}
{"Structure (SMILES)": "COc1cc(C(=O)NC2CCN(C)CC2)c(F)cc1Nc1ncc(C(F)(F)F)c(Oc2cccc3c2C(=O)N(C)C3)n1", "system": "cancer patients", "conditions": "oral, 50 mg single dose, cycle 1 day 1, geometric mean", "endpoint": "AUC(0-inf)", "value": "5.32 µM·h"}
{"Structure (SMILES)": "C[C@H]1CN(C(=O)CC#N)[C@]12CCN(c1ncnc3[nH]ccc13)C2", "system": "healthy Japanese males", "conditions": "oral, 25 mg single dose", "endpoint": "AUC(0-inf)", "value": "0.957 µg·h/mL"}
{"note": "A few entries again:"}
{"Structure (SMILES)": "C[C@@H](N)C1CCN(S(=O)(=O)c2cccc3cnccc23)CC1", "system": "healthy volunteers, fasted", "conditions": "oral, 250 mg", "endpoint": "AUC(0-inf)", "value": "0.0782 µg·h/mL"}
